Results pooled from the literature.
Lines come from different studies, so protocols differ.
Target: Cytochrome P450 3A4 (CYP3A4, Homo sapiens, UniProt P08684)
UniProt P08684, sequence (whole entry, looked up): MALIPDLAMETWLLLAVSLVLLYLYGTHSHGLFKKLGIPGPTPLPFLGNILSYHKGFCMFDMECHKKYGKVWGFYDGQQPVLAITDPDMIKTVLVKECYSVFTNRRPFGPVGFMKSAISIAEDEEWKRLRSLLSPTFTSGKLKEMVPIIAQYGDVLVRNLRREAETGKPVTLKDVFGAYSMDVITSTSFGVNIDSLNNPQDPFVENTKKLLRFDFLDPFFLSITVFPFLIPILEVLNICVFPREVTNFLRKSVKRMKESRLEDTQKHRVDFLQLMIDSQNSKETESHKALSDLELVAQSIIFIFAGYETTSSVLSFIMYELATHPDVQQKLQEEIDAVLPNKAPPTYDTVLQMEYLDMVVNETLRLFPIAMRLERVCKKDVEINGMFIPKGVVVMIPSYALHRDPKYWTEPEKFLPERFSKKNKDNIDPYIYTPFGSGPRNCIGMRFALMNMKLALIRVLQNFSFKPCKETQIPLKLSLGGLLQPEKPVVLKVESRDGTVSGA

With `N#Cc1cc(NC(=O)C2c3ccccc3C(=O)N(CC(F)(F)F)C2c2cccnc2)ccc1F` (racemic) the inhibition was 38% (enzyme activity, inhibitor; liver microsomes; 10 µM).
`COC1C(c2ccc(Cl)c(Cc3ccc(OC4CCOC4)cc3)c2)OC(CO)C(O)C1O` (stereo not drawn) has an inhibition of under 1% (enzyme activity, inhibitor; human, liver microsomes; 10 µM, 10 min).
`CNC(=O)C1CCCN(C(=O)C2CC3CCC2N3C(=O)[C@@H]2C[C@@H](O)CN2C(=O)NCc2cccc(Cl)c2F)C1` (mixture of isomers) has an IC50 of over 50 µM (inhibitor; human liver microsomes).
`N#Cc1cccc(N2CN(CC(=O)NCC(F)(F)F)C(=O)C23CCN(C(=O)c2cnc4[nH]ncc4c2)CC3)c1` gave an IC50 of over 50 µM (enzyme activity, inhibitor).
`O=C(NS(=O)(=O)c1cccs1)c1cc2ccccc2n1Cc1ccc(Br)c2ccccc12` has an IC50 of over 30 µM (inhibitor).
`Cc1[nH]nc2c1N=C(c1ccccc1Cl)c1cnc(N3CCOCC3)cc1N2` has an IC50 of 5.45 µM (enzyme activity, inhibitor; human liver microsomes; with: testosterone).
With `Cc1nc2ccc(S(=O)(=O)n3nc(SCc4ccc(Cl)cc4)nc3N)cc2s1` the inhibition was 89% (enzyme activity, inhibitor; 10 µM).
The remaining activity of `C=C(NC(=O)c1csc(-c2nc3c(cc2O)-c2nc(cs2)C(=O)NC(C(C)O)C(=O)NC(=C(C)OC)c2nc(cs2)C(=O)NC2c4nc(cs4)C(=O)NC(COC(=O)c4c5c6c(cccc6n4O)COC(=O)C(OC4CC(C)(O)C(N(C)C)C(C)O4)C2OC5)c2nc-3cs2)n1)C(N)=O` (stereo not drawn) is reported as over 70% (enzyme activity, inhibitor; up to 50 µM, pH 7.4).
With `O=C(CN1CN(c2ccccc2)C2(CCN(C(=O)c3ccc4[nH]ncc4c3)CC2)C1=O)Nc1ccccn1` the IC50 was over 50 µM (enzyme activity, inhibitor).
With `Cn1cnnc1C1CCN(c2ncccc2-c2cccnc2)CC1` the remaining compound was 93% (substrate, measured: parent compound; 1 µM, 1 h).
`O=C(CN1CN(c2ccccc2)C2(CCN(C(=O)c3ccc4[nH]ncc4n3)CC2)C1=O)NCC(F)(F)F` has an IC50 of over 50 µM (enzyme activity, inhibitor).
`O=C(c1ccc(C23CC(S(F)(F)(F)(F)F)(CO2)C3)cc1)N1CCN(c2ncccn2)CC1` has a kobs of 0.012 min⁻¹ (time-dependent inhibition, inhibitor).
`C=CC(=O)Nc1cc(Nc2nccc(-c3cn(C)c4ccccc34)n2)c(OCC(F)(F)F)nc1N(C)CCNC`: “contribution to metabolite formation” 79.2% (substrate; 3 µM, 60 min, 3A4 isoform, liver abundance-normalized).
For `Nc1nc(SCc2ccc(Cl)cc2)nn1S(=O)(=O)c1ccc2c(c1)CCO2`, the inhibition was 91% (enzyme activity, inhibitor; 10 µM).
The IC50 of `O=C(CN1CN(c2cccc(F)c2)C2(CCN(C(=O)c3cnc4[nH]ncc4c3)CC2)C1=O)NCC(F)(F)F` is reported as over 50 µM (enzyme activity, inhibitor).

Some of these lines once more:
`C=CC(=O)Nc1cc(Nc2nccc(-c3cn(C)c4ccccc34)n2)c(OCC(F)(F)F)nc1N(C)CCNC`: “contribution to metabolite formation” 79.2% (substrate; 3 µM, 60 min, 3A4 isoform, liver abundance-normalized).
